{"data": "Measurements gathered from unrelated publications", "note": "A part holds a random share of what one study measured. Positions count from the first letter of the parent shown.", "UniProt P35372, sequence (whole entry, looked up)": "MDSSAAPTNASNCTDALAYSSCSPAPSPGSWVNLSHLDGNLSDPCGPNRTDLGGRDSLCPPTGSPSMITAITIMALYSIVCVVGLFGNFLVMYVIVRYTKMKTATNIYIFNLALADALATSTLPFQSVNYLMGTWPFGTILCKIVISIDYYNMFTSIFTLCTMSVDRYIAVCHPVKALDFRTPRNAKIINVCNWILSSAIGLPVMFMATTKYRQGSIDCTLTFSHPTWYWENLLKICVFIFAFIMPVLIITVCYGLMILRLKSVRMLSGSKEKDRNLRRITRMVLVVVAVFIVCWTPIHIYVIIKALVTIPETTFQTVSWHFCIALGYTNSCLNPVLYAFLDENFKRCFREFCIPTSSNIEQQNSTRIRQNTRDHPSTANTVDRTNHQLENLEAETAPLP"}
{"data": "Sample 1", "target": "CCND3, cyclin fold, Cln2 fusion (human)", "method": "yeast growth competition, sequencing", "medium": "yeast", "setting": "weak parent motif", "relative to": "not given", "reading": "higher = stronger binding", "starting sequence": "viral docking peptide; KGVKRKLFAEDSS"}
{"Substitution": "KGVKRKRFAEDSS [L7R]", "normalised enrichment score": 0.336}
{"Substitution": "KGVKRKLFAQDSS [E10Q]", "normalised enrichment score": 0.0733}
{"Substitution": "KGVKRKLFAEDES [S12E]", "normalised enrichment score": -0.304}
{"Substitution": "KGVKRKLFAWDSS [E10W]", "normalised enrichment score": -0.179}
{"data": "Sample 2", "target": "TAR DNA-binding protein 43, full length, His tag (TARDBP, Homo sapiens, UniProt Q13148, residues 1-414)", "method": "RNA Bind-n-Seq", "molecule type": "RNA", "medium": "in vitro", "concentration": "20 nM", "setting": "6-mer, flanks averaged, single round", "together with": "150 mM KCl", "relative to": "input library", "reading": "higher = stronger binding"}
{"Sequence": "CGGUGC", "6-mer enrichment (R)": 1.3}
{"Sequence": "UCGAAA", "6-mer enrichment (R)": 0.612}
{"Sequence": "GUGACG", "6-mer enrichment (R)": 1.5}
{"Sequence": "ACUGUA", "6-mer enrichment (R)": 0.713}
{"Sequence": "AACUAU", "6-mer enrichment (R)": 0.64}
{"Sequence": "ACCGAU", "6-mer enrichment (R)": 0.622}
{"Sequence": "UAUAAU", "6-mer enrichment (R)": 0.773}
{"Sequence": "AAUUCU", "6-mer enrichment (R)": 0.592}
{"data": "Sample 3", "target": "vanadate, free oxyanion", "method": "microfluidic competitive inhibition", "medium": "in vitro, cell-free expressed", "concentration": "not given", "setting": "derived from inhibition constants, unchanged parent 676 nM", "reading": "lower = stronger binding", "starting sequence": "PafA, mature enzyme, eGFP fusion (Elizabethkingia meningoseptica, UniProt Q9KJX5); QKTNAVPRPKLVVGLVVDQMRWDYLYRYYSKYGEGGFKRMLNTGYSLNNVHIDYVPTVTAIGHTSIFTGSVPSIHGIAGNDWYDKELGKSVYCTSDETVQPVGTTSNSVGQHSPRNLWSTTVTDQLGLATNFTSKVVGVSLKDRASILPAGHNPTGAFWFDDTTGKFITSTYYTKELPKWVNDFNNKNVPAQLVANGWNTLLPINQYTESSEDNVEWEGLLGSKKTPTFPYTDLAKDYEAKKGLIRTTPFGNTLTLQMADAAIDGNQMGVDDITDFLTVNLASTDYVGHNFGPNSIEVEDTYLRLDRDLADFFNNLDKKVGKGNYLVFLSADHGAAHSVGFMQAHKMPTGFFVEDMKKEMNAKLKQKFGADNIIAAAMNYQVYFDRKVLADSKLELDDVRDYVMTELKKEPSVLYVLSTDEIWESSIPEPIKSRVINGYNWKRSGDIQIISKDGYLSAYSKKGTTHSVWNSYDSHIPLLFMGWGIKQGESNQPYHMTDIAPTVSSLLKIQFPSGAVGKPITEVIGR"}
{"Substitution": "T169G", "oxyanion analog dissociation constant [µM]": 0.723}
{"Substitution": "Y45V", "oxyanion analog dissociation constant [µM]": 0.655}
{"Substitution": "A331G", "oxyanion analog dissociation constant [µM]": 1.22}
{"data": "Single results of other studies"}
{"Structure (SMILES)": "O=C(NCc1ncc(C(F)(F)F)cc1Cl)c1ccc2c(c1)C1(CCS(=O)(=O)CC1)[C@@H](C1CC1)N2S(=O)(=O)c1ccc(F)cc1", "target": "Mu-type opioid receptor (OPRM1, Homo sapiens, UniProt P35372)", "read-out": "ligand displacement", "concentration": "10 µM", "measurement": "inhibition", "result": "13.1%"}
